Published values of several laboratories.
Every numbered part comes from another study and shows a few of its results, in no order.

Study 1 — technique: DNA-protein interaction ELISA; molecule type: double-stranded DNA, one strand shown; medium: in vitro, bacterial lysate; concentration: not given; notes: whole dsDNA probe, crude lysate protein; baseline: highest signal in screen; direction: higher = stronger binding
Target: Probable WRKY transcription factor 50, DNA-binding domain (WRKY50, Arabidopsis thaliana, UniProt Q8VWQ5, residues 99-173)
UniProt Q8VWQ5, sequence (99-173, looked up): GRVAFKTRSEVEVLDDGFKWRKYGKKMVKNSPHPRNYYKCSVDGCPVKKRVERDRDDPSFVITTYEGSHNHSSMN
| Sequence | relative absorbance |
| --- | --- |
| AAAAAAGTCGTCACGCACGTGAATACAAAA | 30 % of maximum |
| AAAAAATCAAAACAACGATGCCGTTAAAAA | 21.1 % of maximum |
| AAAAAATCTGTTCTCGTTTCCCCTTCAAAA | 49.3 % of maximum |

Study 2 — technique: RNA Bind-n-Seq; molecule type: RNA; medium: in vitro; concentration: 365 nM; baseline: no-protein control; direction: higher = stronger binding
Target: RNA binding protein fox-1 homolog 2, RRM domain, GST-SBP tag (RBFOX2, Homo sapiens, UniProt O43251-10, residues 100-194)
Notes: natural RNA segment, single round, ends assumed
Residues (chain): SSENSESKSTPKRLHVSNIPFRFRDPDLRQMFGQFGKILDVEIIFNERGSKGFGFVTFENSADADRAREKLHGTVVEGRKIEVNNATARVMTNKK
| Sequence | RBNS enrichment (R) |
| --- | --- |
| GGGAGUUCUACAGUCCGACGAUCAUUCCUGCCUGAUUCUGGGUCCGUCCUGACCUCCAAAGGUCAGCUUGGUGCUUGAGGUCUCCCUGCUCUUGGUGGCAGUGGUAGCAGCAACAGCAGCAGCAGCAGCAGCAUGGAAUUCUCGGGUGCCAA | 0.413 |
| GGGAGUUCUACAGUCCGACGAUCUCCCUUCUUUACCUUCAUUUCAUCCUGUUGGCUGCUGCCACCAAAUCUGUCUAGAAUCCUGCUUUACAGGAUCAUGUAAAUGCUCAAAGAUGUAAUGUAGUUCUUUGUUCUGGAAUUCUCGGGUGCCAA | 0.642 |
| GGGAGUUCUACAGUCCGACGAUCCUGACCUAGGGAGCCCUACGAAGUUGUUAACACAGUACUUCUUAGCAUUCCUACGUUAUCCAUAUGUAUAUUUAUUUGUAUGUGUUUCACGUUAUAAAUGUUUUGUAGUGUGGAAUUCUCGGGUGCCAA | 0.259 |

Study 3 — technique: protein-binding microarray; molecule type: double-stranded DNA, one strand shown; medium: in vitro; concentration: 250 nM; notes: 60-bp whole probe; with: salmon DNA 0.4 mg/ml; baseline: random background probes; direction: higher = stronger binding
Target: Interferon regulatory factor 5, full length, phosphomimetic (IRF5, Homo sapiens, UniProt Q13568-2, residues 1-514, K96S/S451D/S453D/S456D/S462D)
| Sequence | log fluorescence [z-score] |
| --- | --- |
| GCCTAGCACTTAAGTATCGGTCTCGGTTAGTGCTAGGTCTTGATTCGCTTGACGCTGCTG | 8.64 |
| GCCTAGCACGAAGGTATCGGTATCGGGACGTGCTAGGTCTTGATTCGCTTGACGCTGCTG | 5.86 |
| GCCTAGCACTCAGCTTTATGTGTAGGACTGTGCTAGGTCTTGATTCGCTTGACGCTGCTG | -0.0412 |
| GCCTAGCACTTAGGTCTCCTACTGCTTTCGTGCTAGGTCTTGATTCGCTTGACGCTGCTG | 0.675 |

Single results of other studies
| Substance | target | assay | test system | conditions | scale | quantity | result |
| --- | --- | --- | --- | --- | --- | --- | --- |
| PhoQ, residues 284 288 289 292 302 303 SIHLQL | PhoP, residues 12 14 15 18 19 LHATL (Escherichia coli, UniProt P23836) | Sort-seq, refers to: YFP reporter | E. coli | PhoQ-PhoP variant library, with: 10 µM Mg2+ | baseline: high Mg2+ state, higher = stronger signaling | fold induction | 3.47 |
